Experimental data gathered from unrelated publications.
Each numbered part is a random draw from the data of one study; scales do not carry over between parts.
UniProt P78356, sequence (whole entry, looked up): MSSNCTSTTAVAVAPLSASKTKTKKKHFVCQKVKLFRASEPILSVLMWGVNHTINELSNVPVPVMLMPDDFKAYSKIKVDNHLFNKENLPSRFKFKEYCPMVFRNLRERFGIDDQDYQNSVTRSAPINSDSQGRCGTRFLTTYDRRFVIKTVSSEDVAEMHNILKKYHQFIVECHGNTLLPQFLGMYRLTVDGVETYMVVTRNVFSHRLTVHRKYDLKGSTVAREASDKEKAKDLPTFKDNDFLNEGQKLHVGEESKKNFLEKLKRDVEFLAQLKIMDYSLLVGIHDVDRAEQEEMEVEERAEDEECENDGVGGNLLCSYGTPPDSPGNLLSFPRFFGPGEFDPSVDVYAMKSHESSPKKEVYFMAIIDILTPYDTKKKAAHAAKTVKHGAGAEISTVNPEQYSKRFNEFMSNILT
UniProt P16591, sequence (whole entry, looked up): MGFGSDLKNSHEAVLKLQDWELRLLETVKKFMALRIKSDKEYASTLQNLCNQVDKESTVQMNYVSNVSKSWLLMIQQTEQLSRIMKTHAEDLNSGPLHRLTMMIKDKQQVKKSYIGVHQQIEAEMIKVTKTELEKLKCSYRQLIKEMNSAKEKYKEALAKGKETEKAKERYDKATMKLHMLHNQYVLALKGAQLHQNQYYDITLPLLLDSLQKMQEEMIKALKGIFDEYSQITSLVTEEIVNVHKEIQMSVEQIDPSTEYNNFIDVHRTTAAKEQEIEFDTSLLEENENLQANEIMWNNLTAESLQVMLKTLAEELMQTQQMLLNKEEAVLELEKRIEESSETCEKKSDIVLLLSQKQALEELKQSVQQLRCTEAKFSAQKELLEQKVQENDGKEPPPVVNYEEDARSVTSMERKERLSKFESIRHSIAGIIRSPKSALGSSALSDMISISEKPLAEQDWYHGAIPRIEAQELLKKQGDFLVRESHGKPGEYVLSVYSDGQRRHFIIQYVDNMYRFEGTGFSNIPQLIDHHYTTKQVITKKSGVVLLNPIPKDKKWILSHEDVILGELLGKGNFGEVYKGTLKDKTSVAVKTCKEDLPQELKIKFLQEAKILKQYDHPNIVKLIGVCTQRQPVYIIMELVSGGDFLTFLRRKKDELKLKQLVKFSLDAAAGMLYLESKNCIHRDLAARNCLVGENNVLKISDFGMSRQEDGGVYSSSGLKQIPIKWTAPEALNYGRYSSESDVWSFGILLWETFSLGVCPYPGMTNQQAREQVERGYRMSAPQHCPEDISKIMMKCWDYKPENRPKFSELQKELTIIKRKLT
UniProt Q9Y2H1, sequence (whole entry, looked up): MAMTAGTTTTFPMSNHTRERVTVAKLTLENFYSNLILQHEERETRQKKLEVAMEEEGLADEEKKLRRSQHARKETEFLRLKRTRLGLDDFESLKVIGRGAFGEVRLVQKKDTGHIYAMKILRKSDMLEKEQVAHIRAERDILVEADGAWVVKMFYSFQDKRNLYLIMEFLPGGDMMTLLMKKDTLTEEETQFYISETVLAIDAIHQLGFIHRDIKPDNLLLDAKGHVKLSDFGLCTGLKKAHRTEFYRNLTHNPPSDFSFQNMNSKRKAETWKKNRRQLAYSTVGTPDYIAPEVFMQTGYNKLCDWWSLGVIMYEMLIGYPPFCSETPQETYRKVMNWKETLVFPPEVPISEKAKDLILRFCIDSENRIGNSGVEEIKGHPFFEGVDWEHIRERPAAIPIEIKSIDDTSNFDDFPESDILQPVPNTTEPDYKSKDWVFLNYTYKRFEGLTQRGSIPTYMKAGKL
UniProt Q13554, sequence (whole entry, looked up): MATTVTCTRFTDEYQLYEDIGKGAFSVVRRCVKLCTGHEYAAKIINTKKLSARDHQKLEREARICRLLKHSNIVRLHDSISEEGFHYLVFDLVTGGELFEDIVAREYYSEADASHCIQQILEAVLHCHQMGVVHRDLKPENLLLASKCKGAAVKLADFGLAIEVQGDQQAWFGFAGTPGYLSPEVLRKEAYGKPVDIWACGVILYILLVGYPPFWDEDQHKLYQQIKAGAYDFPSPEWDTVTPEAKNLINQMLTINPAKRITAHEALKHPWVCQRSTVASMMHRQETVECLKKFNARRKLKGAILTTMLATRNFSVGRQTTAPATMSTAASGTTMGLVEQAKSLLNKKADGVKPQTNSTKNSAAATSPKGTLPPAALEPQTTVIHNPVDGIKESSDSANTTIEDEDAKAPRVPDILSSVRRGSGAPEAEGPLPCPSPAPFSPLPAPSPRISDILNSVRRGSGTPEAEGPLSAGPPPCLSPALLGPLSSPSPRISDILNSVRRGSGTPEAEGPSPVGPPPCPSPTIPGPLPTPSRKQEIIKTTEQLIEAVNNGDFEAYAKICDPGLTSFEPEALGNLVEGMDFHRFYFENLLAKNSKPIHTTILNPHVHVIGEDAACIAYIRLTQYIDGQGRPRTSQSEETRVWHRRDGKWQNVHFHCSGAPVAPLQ
UniProt O14965, sequence (whole entry, looked up): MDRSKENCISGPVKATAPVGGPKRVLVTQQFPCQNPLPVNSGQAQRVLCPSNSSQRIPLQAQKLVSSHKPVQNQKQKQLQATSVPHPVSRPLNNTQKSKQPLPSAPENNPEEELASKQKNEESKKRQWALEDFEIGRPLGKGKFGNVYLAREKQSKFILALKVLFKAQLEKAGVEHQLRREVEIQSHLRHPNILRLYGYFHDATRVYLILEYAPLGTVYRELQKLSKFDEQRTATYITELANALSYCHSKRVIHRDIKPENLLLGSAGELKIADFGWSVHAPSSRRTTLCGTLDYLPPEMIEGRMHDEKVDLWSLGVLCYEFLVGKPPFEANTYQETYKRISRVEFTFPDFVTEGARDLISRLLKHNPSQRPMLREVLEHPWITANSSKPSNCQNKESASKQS
UniProt Q59H18, sequence (whole entry, looked up): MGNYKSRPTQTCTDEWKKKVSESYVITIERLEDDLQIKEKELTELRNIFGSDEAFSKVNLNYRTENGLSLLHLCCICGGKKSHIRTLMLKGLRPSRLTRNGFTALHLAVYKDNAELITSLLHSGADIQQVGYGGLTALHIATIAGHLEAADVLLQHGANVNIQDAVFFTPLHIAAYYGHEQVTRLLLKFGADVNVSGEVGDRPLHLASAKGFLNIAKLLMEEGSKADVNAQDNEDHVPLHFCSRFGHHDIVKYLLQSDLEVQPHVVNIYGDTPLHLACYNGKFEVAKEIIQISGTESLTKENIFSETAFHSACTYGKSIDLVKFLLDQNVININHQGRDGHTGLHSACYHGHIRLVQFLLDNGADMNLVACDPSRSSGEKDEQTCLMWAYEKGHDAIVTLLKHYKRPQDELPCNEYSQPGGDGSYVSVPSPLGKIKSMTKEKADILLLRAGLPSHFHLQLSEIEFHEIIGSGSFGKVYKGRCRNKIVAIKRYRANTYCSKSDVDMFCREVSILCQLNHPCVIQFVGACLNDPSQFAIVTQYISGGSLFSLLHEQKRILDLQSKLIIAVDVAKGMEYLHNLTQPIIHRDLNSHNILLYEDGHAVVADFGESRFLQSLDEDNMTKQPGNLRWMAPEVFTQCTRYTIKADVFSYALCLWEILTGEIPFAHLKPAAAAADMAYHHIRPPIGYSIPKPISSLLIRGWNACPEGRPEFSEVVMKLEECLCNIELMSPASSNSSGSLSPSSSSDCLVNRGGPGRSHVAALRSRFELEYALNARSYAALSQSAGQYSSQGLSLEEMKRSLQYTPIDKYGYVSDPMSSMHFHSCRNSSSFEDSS
UniProt P35968, sequence (whole entry, looked up): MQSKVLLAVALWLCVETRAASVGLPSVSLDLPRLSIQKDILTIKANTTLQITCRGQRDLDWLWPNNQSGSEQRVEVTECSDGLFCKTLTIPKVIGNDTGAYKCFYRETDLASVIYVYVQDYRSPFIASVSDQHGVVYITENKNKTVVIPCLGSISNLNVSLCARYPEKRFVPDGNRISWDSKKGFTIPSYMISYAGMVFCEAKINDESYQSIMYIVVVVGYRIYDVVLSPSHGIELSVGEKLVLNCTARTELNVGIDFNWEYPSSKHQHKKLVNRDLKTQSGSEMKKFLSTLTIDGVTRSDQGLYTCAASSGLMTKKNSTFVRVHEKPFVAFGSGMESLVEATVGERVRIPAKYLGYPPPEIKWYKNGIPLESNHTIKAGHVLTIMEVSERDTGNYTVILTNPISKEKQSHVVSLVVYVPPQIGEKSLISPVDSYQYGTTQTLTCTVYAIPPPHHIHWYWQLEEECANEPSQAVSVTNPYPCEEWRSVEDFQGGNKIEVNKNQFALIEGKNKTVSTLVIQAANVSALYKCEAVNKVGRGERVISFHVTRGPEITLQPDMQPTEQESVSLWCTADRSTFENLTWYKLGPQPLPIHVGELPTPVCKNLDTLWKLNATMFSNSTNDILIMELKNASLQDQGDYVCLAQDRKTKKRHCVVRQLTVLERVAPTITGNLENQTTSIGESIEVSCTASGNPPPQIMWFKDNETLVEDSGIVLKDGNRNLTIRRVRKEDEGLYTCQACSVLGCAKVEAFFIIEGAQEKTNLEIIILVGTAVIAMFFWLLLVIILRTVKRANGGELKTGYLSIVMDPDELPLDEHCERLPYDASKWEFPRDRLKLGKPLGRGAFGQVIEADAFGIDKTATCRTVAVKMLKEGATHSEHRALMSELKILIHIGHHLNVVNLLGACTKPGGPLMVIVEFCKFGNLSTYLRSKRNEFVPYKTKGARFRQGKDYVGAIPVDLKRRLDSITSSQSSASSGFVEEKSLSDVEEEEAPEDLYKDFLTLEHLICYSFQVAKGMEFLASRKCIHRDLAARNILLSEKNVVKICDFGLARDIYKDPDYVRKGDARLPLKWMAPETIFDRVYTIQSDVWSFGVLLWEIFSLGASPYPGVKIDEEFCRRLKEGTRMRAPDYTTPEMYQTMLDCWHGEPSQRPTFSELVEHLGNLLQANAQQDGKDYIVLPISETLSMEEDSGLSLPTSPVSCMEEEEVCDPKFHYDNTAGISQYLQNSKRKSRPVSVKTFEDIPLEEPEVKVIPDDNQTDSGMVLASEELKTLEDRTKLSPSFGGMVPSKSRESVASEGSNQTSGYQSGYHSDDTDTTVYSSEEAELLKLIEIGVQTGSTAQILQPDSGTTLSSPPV

Set 1
Structure (SMILES): Cc1cc(Nc2cc(N3CCN(C)CC3)nc(Sc3ccc(NC(=O)C4CC4)cc3)n2)[nH]n1
Observed: enzyme activity
Action: inhibitor
Concentration: 0.5 µM
Reference: control
target | remaining activity [%]
MYLK (Homo sapiens, UniProt Q15746) | 97
EPHA7 (Homo sapiens, UniProt Q15375) | 74.7
PIM2 (Homo sapiens, UniProt Q9P1W9) | 97.3
CSF1R (Homo sapiens, UniProt P07333) | 106
PRKCE (Homo sapiens, UniProt Q02156) | 97.8
RPS6KA1 (Homo sapiens, UniProt Q15418) | 103
RPS6KB1 (Homo sapiens, UniProt P23443) | 96

Set 2
Species: human
Matrix: microsomes or S9
Concentration: 2 µM
Time: 0.5 h
Structure (SMILES) | remaining compound [%]
CCOc1cc2c(cc1CNc1ccnc3c1cnn3C)OC(C)C2 (stereo not drawn) | 1.32
O=C(NC1CCCCCC1)N1CCOC2(CCOCC2)C1 | 87
CN(CCOC(=O)c1ccc(C(C)(C)C)cc1)C1=NS(=O)(=O)c2ccccc21 | < 1
COc1nn(C)cc1C(=O)N1CCN(c2nccn3nc4c(c23)CCCC4)CC1 | 55.8
Cc1ccccc1-c1ccc(-n2cncc2C(=O)N2Cc3ccccc3C2)cc1 | 70.2
CC(C)(C)OC(=O)N1CCC2(CC1)NN=C1C=C(N3CCN(c4ccccc4F)CC3)N=CN12 | 81.8
CC(C)n1[nH]c(=O)c2c(-c3ccc[nH]c3=O)c3c(nc21)[nH]c(=O)n3C | 25.3
c1ccc2c(c1)OCC(c1noc(CCc3c[nH]nn3)n1)O2 (stereo not drawn) | 94.7
O=S1(=O)N=C(Nc2nccs2)c2ccccc21 | 82.3
O=C(O)CCc1nnc2[nH]c3ccccc3n2c1=O | 70.3

Set 3
SMILES: O=C(Nc1cccnn1)N1CCC(=Cc2cccc(Oc3ccc(C(F)(F)F)cn3)c2)CC1
Observed: cell-free assay
Technique: competition with immobilised ligand
Concentration: 1 µM
target | remaining binding [%]
RIOK3 (Homo sapiens, UniProt O14730) | 100
CSNK1E (Homo sapiens, UniProt P49674) | 100
PIP4K2B (Homo sapiens, UniProt P78356) | 83
FER (Homo sapiens, UniProt P16591) | 74
KDR (Homo sapiens, UniProt P35968) | 88
Aurora kinase B (AURKB, Homo sapiens, UniProt Q96GD4) | 100
CAMK2B (Homo sapiens, UniProt Q13554) | 89
CDK15 (Homo sapiens, UniProt Q96Q40) | 100
ALK (Homo sapiens, UniProt Q9UM73, C1156Y) | 100
STK38L (Homo sapiens, UniProt Q9Y2H1) | 84
WEE2 (Homo sapiens, UniProt P0C1S8) | 77
Aurora kinase A (AURKA, Homo sapiens, UniProt O14965) | 100
Tyrosine-protein kinase ABL1, phosphorylated (ABL1, Homo sapiens, UniProt P00519) | 93
GAK (Homo sapiens, UniProt O14976) | 100
CLK2 (Homo sapiens, UniProt P49760) | 66
NEK6 (Homo sapiens, UniProt Q9HC98) | 100
TNNI3K (Homo sapiens, UniProt Q59H18) | 100

Set 4
Structure (SMILES): CC(C)n1cnc(-c2ccc(F)cc2)c1-c1ncc(C(=O)Nc2ccc(N3CCN(C)CC3)cc2)[nH]1
Technique: Phase 2a trial
Species: idiopathic pulmonary fibrosis patients
assay | setting | patients with adverse events
item: blood alkaline phosphatase increased | 60 mg once daily, grade 1 maximum intensity | 0%
item: infections and infestations | 60 mg once daily, grade 5 maximum intensity | 0%
item: oral herpes | oral, 30 mg once daily, grade 2 maximum intensity | 0%
item: neutrophil count increased | 60 mg once daily, grade 1 maximum intensity | 0%
item: reticulocyte count increased | 60 mg once daily, grade 4 maximum intensity | 0%
item: muscular weakness | 60 mg once daily, grade 2 maximum intensity | 0%
item: oral herpes | oral, 60 mg once daily, grade 2 maximum intensity | 0%
item: back pain | 30 mg once daily, grade 4 maximum intensity | 0%
item: tri-iodothyronine increased | dose not given, grade 5 maximum intensity, all arms | 0%
item: tri-iodothyronine increased | 30 mg once daily, grade 2 maximum intensity | 0%
item: bile acids increased | dose not given, grade 3 maximum intensity, all arms | 0%
